Measurements collected from several papers.
Every numbered part comes from another study and shows a few of its results, in no order.

Study 1
Target: RING finger protein unkempt homolog, zinc fingers 1-6, GST-SBP tag (UNK, Homo sapiens, UniProt Q9C0B0, residues 30-357)
UniProt Q9C0B0, sequence (30-357, looked up): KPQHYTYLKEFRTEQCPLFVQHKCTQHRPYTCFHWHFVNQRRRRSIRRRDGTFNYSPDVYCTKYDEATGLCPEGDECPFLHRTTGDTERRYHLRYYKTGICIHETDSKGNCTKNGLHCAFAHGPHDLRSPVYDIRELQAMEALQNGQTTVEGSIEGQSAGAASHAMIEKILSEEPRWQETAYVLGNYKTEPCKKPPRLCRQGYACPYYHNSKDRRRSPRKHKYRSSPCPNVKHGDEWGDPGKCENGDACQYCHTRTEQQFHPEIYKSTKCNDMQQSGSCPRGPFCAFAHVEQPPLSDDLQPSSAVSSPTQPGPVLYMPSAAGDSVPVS
Method: RNA Bind-n-Seq
Molecule type: RNA
Matrix: in vitro
Tested at: not given
Notes: RNA with constant flanks, human and mouse sites, ends assumed
Relative to: input RNA pool
Reading: higher = stronger binding
Shared flanks, not repeated: GGGAGUUCUACAGUCCGACGAUC … CAACAGAGGAUUGAGCAUCA
| Sequence | bound/input enrichment [ratio] |
| --- | --- |
| CCUGCAGCCGGGGGACGCUUCUGGGUUGGAGGACCUUCUGGAUGUAGCGUCGGUGGAACCUUUAGAUACUCUCCUCUGGAAAAGCCACCAUGAAUUCGGUAGCUGGGAAUAAAGAGAGGC | 0.581 |
| AACAAACUUAUAGUGACGCGUUGGAAGGCUAACCGAAGCCAUCCUUACCCCUAUUUAAUGUAGCUUGGCUUGCUUUCCCUUUUAUCUGAUGUUACCAUUGCGAUCUAGCUUUCUUUUCAU | 0.562 |
| ACCACUGGUGGCAUUGAUGAUAUGUAUCUCAAGUAUUUUGUGGAAGCUGGUGCCAUGGCUGUUAGGAGAGUUUUAAAACGAGACCUGAAGCAUGUUGCAAAAGCUUCUGGAGCAAGUAUC | 0.117 |
| CGGUGUGUUGUCUGUUGUUAAUUCCAUUCCCUCCGUGUGUUUCCUUAAAAGCUUCUGUCUAUUAGUGGCUUCCUGUGCUCUGGGCACUUAACUCCUAAUCUUUCAAACACCGGGAUGCAA | 0.497 |
| CCUGGAUGGAACGAGGCAGCAUCACAGUAAACCUUUGGGGACCAUGUAGCCAGCUGGCAUCCUAGGGAACUCCUUCCCAUAGCCCGACUGCUGUCACAGCUAAGCUUCUCACAGGACUGU | 0.21 |
| CAGCAGCCACAGCCACUGAUGUCACAACAGUUUGCACAGCCUCCGGGAGCUACCAAUAUGAUAGGUUACAUGGGGCAGACUGCCUACCAAUACCCUCCUCCUCCUCCCCCUCCUCCUCCU | 0.336 |
| GUGCUGAGUUACACCAGAAUGUAAAUGUGAAGAACAUAAUCAUUGCUUUAAUUGAUAGAUUAGCUUUAUUUGCUCACCGUGAAGAUGGACCUGGAAUCCCAGCGGAUAUUAAACUUUUUG | 2.51 |
| AAAAUGUUUAUCGGUGGACUGAGCUGGCAGACCUCACCAGAUAGCCUUAGAGACUAUUUUAGCAAAUUUGGAGAAAUUAGAGAAUGUAUGGUCAUGAGAGAUCCCACUACGAAACGCUCC | 10.6 |
| UGUUCCACUUUACUUUCCUUCCCGGGAAGUUUGUUUGGCUUUCUUCCAUUGUUGUUUUUGUAGCUUUUACUUCAGAAGUCUGUAUUUCCAUAAGCCAGAGGUUGUAAAGCCACUGAUGUU | 0.428 |
| CUGUCUUCACAUUCAUAUUCCAGAUUUAUAUUUUCUGGAGUUAAAUUUGGAUGAUUUCUAAAUUAUCACAAAGUGGGACCUCAGCAGUAGUGAUGUGUGUGUCUCAUGAGCAGUGAGCAC | 0.384 |
| UUCUUAAAAAGACACAUGAAGAAUCAUCCUGAUCAUUUAAUGAGAAAAAAAUAUCAGUGUACAGAUUGUGACUUUACAACUAACAAGAAAGUGAGUUUCCAUAACCACUUAGAAAGCCAU | 0.281 |

Study 2
Target: Histone acetyltransferase KAT6A, both winged helices, GST fusion (KAT6A, Homo sapiens, UniProt Q92794, residues 1-181)
Method: protein binding microarray
Molecule type: double-stranded DNA, one strand shown
Matrix: in vitro
Tested at: not given
Notes: 8-mer, flanks averaged, mean of 2 arrays, mostly near background
Relative to: not given
Reading: higher = stronger binding
Residues (chain): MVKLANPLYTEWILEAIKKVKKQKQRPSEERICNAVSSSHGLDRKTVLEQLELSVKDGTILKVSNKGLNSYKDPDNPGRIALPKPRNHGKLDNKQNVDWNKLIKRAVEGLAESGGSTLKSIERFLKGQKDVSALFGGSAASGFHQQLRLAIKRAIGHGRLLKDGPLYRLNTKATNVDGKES
| Sequence | E-score |
| --- | --- |
| AGTTGGGC | -0.226 |
| AAGGGGCG | 0.115 |
| AATCTAGA | -0.11 |
| CCTACAGC | -0.0109 |
| ACAAACGG | 0.208 |
| ATCGTAGA | -0.0533 |
| TACTGCGA | -0.0592 |
| ATGATTAA | -0.0283 |
| ACATGATG | -0.093 |
| AAACAGAA | -0.122 |
| AACGGATT | 0.189 |
| CGGCAATC | 0.291 |
| GTGTGCGA | 0.0477 |
| CTATTGCC | 0.0404 |
| ACCATTAG | -0.0217 |
| AAGGACGG | 0.216 |
| GACGAAGC | 0.0206 |
| ACCTTCGA | -0.114 |
| ATCAATTG | -0.0924 |
| GCTTCACA | -0.0113 |
| GCTCCATA | -0.107 |
| AGTGCGAG | -0.0616 |
| GTATCCCA | -0.11 |

Study 3
Target: Prothrombin, mature alpha-thrombin (F2, Homo sapiens, UniProt P00734)
Method: aptamer microarray, sandwich
Molecule type: DNA with 2'F-ANA
Matrix: in vitro
Tested at: 200 nM
Notes: whole 15-mer aptamer, many near background
With: Cy3 exosite-II aptamer, 400 nM
Reading: higher = stronger binding
Sequence: GGTTGGTGTGGTTGG
| Modification | mean fluorescence intensity |
| --- | --- |
| 2'F-ANA at 4 5 6 8 10 12 15 | 60.6 a.u. |
| 2'F-ANA at 1 2 3 4 8 9 12 13 14 15 | 67.2 a.u. |
| 2'F-ANA at 1 3 6 7 10 | 90 a.u. |
| 2'F-ANA at 1 2 3 9 11 12 13 14 | 79.2 a.u. |
| 2'F-ANA at 1 2 3 4 7 8 9 10 11 | 60.6 a.u. |
| 2'F-ANA at 2 4 5 6 8 9 12 13 15 | 85.1 a.u. |
| 2'F-ANA at 2 3 4 10 12 14 15 | 194 a.u. |
| 2'F-ANA at 1 3 10 12 13 | 128 a.u. |
| 2'F-ANA at 1 3 5 6 7 8 9 10 12 15 | 50.7 a.u. |
| 2'F-ANA at 1 3 4 5 6 8 10 11 15 | 47.8 a.u. |
| 2'F-ANA at 4 5 6 7 8 11 12 14 15 | 49.4 a.u. |
| 2'F-ANA at 2 3 7 10 11 13 14 | 255 a.u. |
| 2'F-ANA at 3 5 8 10 11 14 | 67 a.u. |
| 2'F-ANA at 1 2 5 9 12 | 115 a.u. |
| 2'F-ANA at 3 5 6 8 10 11 12 14 | 66.3 a.u. |
| 2'F-ANA at 1 7 9 10 11 12 14 | 46.2 a.u. |
| 2'F-ANA at 1 5 6 7 9 10 12 14 15 | 45.1 a.u. |
| 2'F-ANA at 1 5 7 8 9 | 68.5 a.u. |
| 2'F-ANA at 1 2 5 6 9 12 15 | 99.4 a.u. |
| 2'F-ANA at 5 8 10 11 12 13 15 | 47.5 a.u. |
| 2'F-ANA at 1 5 7 9 10 13 14 15 | 54.7 a.u. |
| 2'F-ANA at 1 2 5 10 11 12 15 | 65.3 a.u. |

Study 4
Target: RNA binding protein fox-1 homolog 2, RRM domain, GST-SBP tag (RBFOX2, Homo sapiens, UniProt O43251-10, residues 100-194)
Method: RNA Bind-n-Seq
Molecule type: RNA
Matrix: in vitro
Tested at: 365 nM
Notes: natural RNA segment, single round, ends assumed
Relative to: no-protein control
Reading: higher = stronger binding
Shared flanks, not repeated: GGGAGUUCUACAGUCCGACGAUC … UGGAAUUCUCGGGUGCCAA
Residues (chain): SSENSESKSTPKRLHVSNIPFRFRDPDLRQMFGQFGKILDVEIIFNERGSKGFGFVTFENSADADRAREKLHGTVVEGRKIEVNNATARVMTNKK
| Sequence | RBNS enrichment (R) |
| --- | --- |
| CCUAAAACAUUUGUCACCAGAACAGUGGGGAAAAGCCUUCCUUUCCAGCCAUGUCUGACAGUGAGCAUGCUUUGGUGUGGUCUUCACUGCUUUUGGUUUUGCUUCUGAUC | 0.521 |
| CUGGGAGGAAAGCAUGGCCCAGCAUUCAGCAUGUGUUCCUUUCUGCAGUGGUUCUUAUCACCACCUCCCUCCCAGCCCCAGCGCCUCAGCCCCAGCCCCAGCUCCAGCCC | 6.52 |
| CUGAUCCUAAGAAGGGGGCCUGGGGGUGCGUGCAGCCUGUCGGGGAGACCCCACUCUGACAGUGGGCACACGGCAGCCUGCAAAGCACAGGGCCACCGCCACAGCCCGGC | 0.376 |
| GCCCAGUUGACCCGAAAAAUAGGACUUUUUAGAAUUGCAUUGCCACUUCUAAAAUCCUAGCAAUACUUAGAAUAACACAUCAGUGAGAUAAAUUUUACUCAAUUAUUUUA | 0.268 |
| UAUUUUUGUACAAAUAAGGGACUGAUGUUCUGUUUCUUGUUAUUAGAAAUAAACAUUAAUAAAGCGUCUUGGUGUCCUGUCGUGUUUUUUUUUUAAUGCUUGCGCCGAUA | 1.54 |
| CUCCUUUUUUCUCUUGCUGCCCACAUUGUGCCUUUAUUUUAUGAGCCCCAGUUUUCUGGGCUUAGUUUAAAAAAAAAAUCAAGUCUAAACAUUGCAUUUAGAAAGCUUUU | 0.753 |
| CUUUAGAAGGGUGGUCUUUAUUCAGGUUUUACUGUAAUGGUAAGGAUUGACUCAAGAGACAGUAUUAGUAAAUUUAUUGUGUAUGGAUCAAAAGUGAAUAAUGUAUGAAU | 0.265 |
| CAAACUUUUGUAUGGUUGGGAGAUGUGGCUGGAAAGUACUUUGGAAAAUAUACAAUCAAGAUAUUUCGUCUCAUAUUAAAAGAGAAAUCUCAAUCACAGUGUUGGCUUUU | 0.454 |
| GGUAGCUAUCAGACAUGGACAGAAACUGACUUAGUGCUCACAAGCCCCUACACCUUCUGGGCUGAAGAUCACCCAGCUGUGUUCAGAAUUUUCUUACUGUGCUUAGGACU | 0.339 |
| CAACUCGUCCGACUCUUCUAUGAUGUUGAGCUCCCUGACAGCUGCCCUUUACCUCACAGUCUCCAUUGGACCUCAGCCAGGACCAGCCUCUGUCUGGUCCGAGAUGACCC | 0.206 |
| AUGAAGAAGUAGAAAGUGAGUCAUGCACUAGACAGUGGGCCUAGCUCAUCAGUGGCUAAAGUUGAAAAGGGGUUGGUUUCCUGUAUAUAUAUGUAUGUAUAUACACACGU | 0.885 |
| AGGAGUGGGGUGCUGUCUUCCACUGACACCCAGGUCCAGAAUCCUUGGUCUUGAGCCCCUGUCCUUUCUCCAUCCCCCAUGGAAAUGUAGUUCUUUUCUGGCCCUUUCCC | 0.298 |

Repeated from above (study 4):
| Sequence | RBNS enrichment (R) |
| --- | --- |
| CUUUAGAAGGGUGGUCUUUAUUCAGGUUUUACUGUAAUGGUAAGGAUUGACUCAAGAGACAGUAUUAGUAAAUUUAUUGUGUAUGGAUCAAAAGUGAAUAAUGUAUGAAU | 0.265 |
| CAAACUUUUGUAUGGUUGGGAGAUGUGGCUGGAAAGUACUUUGGAAAAUAUACAAUCAAGAUAUUUCGUCUCAUAUUAAAAGAGAAAUCUCAAUCACAGUGUUGGCUUUU | 0.454 |
| GGUAGCUAUCAGACAUGGACAGAAACUGACUUAGUGCUCACAAGCCCCUACACCUUCUGGGCUGAAGAUCACCCAGCUGUGUUCAGAAUUUUCUUACUGUGCUUAGGACU | 0.339 |
| CAACUCGUCCGACUCUUCUAUGAUGUUGAGCUCCCUGACAGCUGCCCUUUACCUCACAGUCUCCAUUGGACCUCAGCCAGGACCAGCCUCUGUCUGGUCCGAGAUGACCC | 0.206 |
| AUGAAGAAGUAGAAAGUGAGUCAUGCACUAGACAGUGGGCCUAGCUCAUCAGUGGCUAAAGUUGAAAAGGGGUUGGUUUCCUGUAUAUAUAUGUAUGUAUAUACACACGU | 0.885 |
| AGGAGUGGGGUGCUGUCUUCCACUGACACCCAGGUCCAGAAUCCUUGGUCUUGAGCCCCUGUCCUUUCUCCAUCCCCCAUGGAAAUGUAGUUCUUUUCUGGCCCUUUCCC | 0.298 |
